{"data": "Assay results collected from several papers", "note": "Compare with care: the assays were run in different laboratories."}
{"Structure (SMILES)": "Cc1nc2cccc(N)c2c(=O)n1C1CCC(=O)NC1=O (stereo not drawn)", "system": "healthy adult human", "setting": "oral, 3 mg, geometric mean, with: rifampin 600 mg once daily", "CL/F": "6.51 L/h"}
{"Structure (SMILES)": "Cc1cccc(C)c1OCC(=O)N[C@@H](Cc1ccccc1)[C@@H](O)C[C@H](Cc1ccccc1)NC(=O)[C@H](C(C)C)N1CCCNC1=O", "system": "human, HIV+/HCV+, plasma", "setting": "total drug, steady state, median, with: lopinavir/ritonavir twice daily", "CL/F": "0.983 mL/min/kg"}
{"Structure (SMILES)": "C[C@@H](c1nc(-c2ccc(C#N)cc2)cs1)[C@](O)(Cn1cncn1)c1cc(F)ccc1F", "system": "human, plasma", "setting": "oral, 200 mg single dose, with: ketoconazole 200 mg BID", "CL/F": "0.5 L/h"}
{"Structure (SMILES)": "CN1CC[C@@H](NC(=O)Nc2ccc(C#N)cc2)C[C@@H]1c1nc2ccccc2[nH]1", "test": "population PK model", "system": "human cancer patients", "setting": "oral, 5 to 640 mg once daily, sample A kg haematologic patient, 38.2% BMB, no sample B inhibitor", "CL/F": "6.27 L/h"}
{"Structure (SMILES)": "COC(=O)N[C@H](C(=O)N[C@@H](Cc1ccccc1)[C@@H](O)CN(Cc1ccc(-c2ccccn2)cc1)NC(=O)[C@@H](NC(=O)OC)C(C)(C)C)C(C)(C)C", "system": "healthy and HIV-infected humans", "setting": "oral, 300 mg once daily, fed, with: ritonavir 100 mg", "CL/F": "7.7 L/h"}
{"Structure (SMILES)": "CCOc1cc([C@@H](CS(C)(=O)=O)N2C(=O)c3cccc(NC(C)=O)c3C2=O)ccc1OC", "system": "healthy human", "setting": "oral, 30 mg single dose, with: rifampicin 600 mg oral once daily, dose 14", "CL/F": "36.2 L/h"}
{"Structure (SMILES)": "COc1cc2ncnc(Nc3ccc(F)c(Cl)c3)c2cc1NC(=O)/C=C/CN1CCCCC1", "system": "human, normal hepatic function", "setting": "oral, 30 mg single, geometric mean", "CL/F": "42.6 L/h"}
{"Structure (SMILES)": "CC(C)c1nc(CN(C)C(=O)N[C@H](C(=O)N[C@@H](Cc2ccccc2)C[C@H](O)[C@H](Cc2ccccc2)NC(=O)OCc2cncs2)C(C)C)cs1", "system": "human, HIV+/HCV−, plasma", "setting": "oral, total drug, steady state, median, with: lopinavir/ritonavir twice daily", "CL/F": "3.17 mL/min/kg"}
{"Structure (SMILES)": "CCOc1ccc(Cc2cc([C@]34OC[C@](CO)(O3)[C@@H](O)[C@H](O)[C@H]4O)ccc2Cl)cc1", "system": "human, plasma", "setting": "oral, 15 mg single dose, geometric mean", "CL/F": "10.7 L/h"}
{"Structure (SMILES)": "CO[C@H]1C[C@@H]2CC[C@@H](C)[C@@](O)(O2)C(=O)C(=O)N2CCCC[C@H]2C(=O)O[C@H]([C@H](C)C[C@@H]2CC[C@@H](OCCO)[C@H](OC)C2)CC(=O)[C@H](C)/C=C(\\C)[C@@H](O)[C@@H](OC)C(=O)[C@H](C)C[C@H](C)/C=C/C=C/C=C/1C", "system": "human, plasma", "setting": "oral, 30 mg, with: sunitinib 50 mg daily", "CL/F": "4.21 mL/min/kg"}
{"Structure (SMILES)": "CNC(=O)c1ccc(-c2cnc3ncc(Cc4ccc5ncccc5c4)n3n2)cc1F", "system": "healthy human subjects, plasma", "setting": "oral, 200 mg, geometric mean, with: itraconazole 200 mg/day", "CL/F": "26.8 L/h"}
{"Structure (SMILES)": "CC(C)NC[C@@H](C(=O)N1CCN(c2ncnc3c2[C@H](C)C[C@H]3O)CC1)c1ccc(Cl)cc1", "system": "human, hepatic impairment Moderate (Child-Pugh), plasma", "setting": "oral, 100 mg single, geometric mean", "CL/F": "124 L/h"}
{"Structure (SMILES)": "CCn1c(=O)c2c(nc(/C=C/c3ccc(OC)c(OC)c3)n2C)n(CC)c1=O", "system": "healthy human, plasma", "setting": "oral, 40 mg single dose, arithmetic mean, with: rifampin 600 mg/day steady state", "CL/F": "20.6 L/h"}
{"Structure (SMILES)": "CC[C@H](C)[C@H](NC(=O)[C@H](CC(C)C)NC(=O)[C@H](Cc1c[nH]c2ccccc12)NC(=O)[C@H](C)NC(=O)[C@@H](NC(=O)[C@H](Cc1ccccc1)NC(=O)[C@H](CC(=O)O)NC(=O)[C@H](CCCNC(=N)N)NC(=O)[C@H](C)NC(=O)[C@H](C)NC(=O)[C@H](CC(C)C)NC(=O)[C@H](C)NC(=O)[C@H](CC(=O)O)NC(=O)[C@H](CC(C)C)NC(=O)[C@@H](NC(=O)[C@@H](NC(=O)[C@H](C)NC(=O)[C@H](CC(C)C)NC(=O)[C@H](CCC(=O)O)NC(=O)[C@H](CO)NC(=O)[C@H](CO)NC(=O)[C@H](Cc1ccccc1)NC(=O)[C@@H](NC(=O)CNC(=O)[C@H](CCC(=O)O)NC(=O)CNC(=O)[C@@H](N)Cc1cnc[nH]1)[C@@H](C)O)[C@@H](C)O)[C@@H](C)CC)[C@@H](C)CC)C(=O)N[C@@H](C)C(=O)N[C@H](C(=O)N[C@@H](CCCCN)C(=O)N[C@H](C(=O)N[C@H](C(=O)N[C@@H](CC(=O)O)C(=O)N[C@@H](CCCCN)C(=O)N[C@@H](CCCCN)C(=O)N[C@@H](CCCCN)C(=O)N[C@@H](CCCCN)C(=O)N[C@@H](CCCCN)C(=O)N[C@@H](CCCCN)C(N)=O)[C@@H](C)O)[C@@H](C)CC)[C@@H](C)O", "system": "healthy humans, plasma", "setting": "subcutaneous, 5 mg glepaglutide once weekly, 6 doses, day 36, geometric mean", "CL/F": "1390 L/h"}
{"Structure (SMILES)": "CCCC[C@H](NC(C)=O)C(=O)N[C@H]1CCC(=O)NC[C@@H](C(=O)N[C@@H](Cc2c[nH]c3ccccc23)C(N)=O)NC(=O)[C@H](CCCNC(=N)N)NC(=O)[C@@H](Cc2ccccc2)NC(=O)[C@H](Cc2c[nH]cn2)NC1=O", "system": "healthy human, both sexes, plasma", "setting": "subcutaneous, 1.0 mg once daily, day 1, arithmetic mean", "CL/F": "20.1 L/h"}
{"Structure (SMILES)": "CC[C@H](C)[C@@H]1NC(=O)[C@H](CCCNC(=N)N)NC(=O)[C@H](CC(=O)O)NC(=O)[C@H](CC(C)C)NC(=O)[C@H](CCCCN)NC(=O)[C@H](CC(C)C)NC(=O)CNC(=O)[C@H](Cc2ccccc2)NC(=O)[C@@H](NC(=O)CNC(=O)[C@H](CCCCN)NC(=O)[C@H](CO)NC(=O)[C@H](CC(C)C)NC(=O)CNC(=O)[C@H](CCCCN)NC(=O)[C@H](CCCCN)NC(=O)[C@H](CC(N)=O)NC(=O)[C@H](C)NC(=O)CNC(=O)[C@H](CCCCN)NC(=O)[C@H](Cc2ccc(O)cc2)NC(=O)[C@H](CCCCN)NC(=O)[C@H](CCCNC(=N)N)NC(=O)[C@H](C)NC(=O)[C@H](CC(N)=O)NC(=O)[C@@H]2CCCN2C(=O)[C@H](Cc2c[nH]cn2)NC(=O)[C@H](CCC(=O)O)NC(=O)[C@H](CCC(N)=O)NC(=O)CNC(=O)[C@@H]2CCCN2)CSSC[C@@H](C(=O)O)NC(=O)CNC(=O)[C@H](CC(C)C)NC(=O)CNC(=O)[C@H](CO)NC(=O)[C@H](CCSC)NC(=O)[C@H](CO)NC(=O)CNC1=O", "system": "human, plasma", "setting": "subcutaneous, 15 µg/kg once daily, week 52", "CL/F": "79.4 mL/min/kg"}
{"Structure (SMILES)": "Nc1cccc2c1C(=O)N(C1CCC(=O)NC1=O)C2=O (stereo not drawn)", "system": "healthy humans, plasma", "setting": "4 mg, alone, geometric mean", "CL/F": "7.6 L/h"}
{"Structure (SMILES)": "CCc1cc(/C(C)=N/OCc2ccc(C3CCCCC3)c(C(F)(F)F)c2)ccc1CN1CC(C(=O)O)C1", "system": "healthy human CYP2C9*2/*3", "setting": "0.25 mg single dose, geometric mean", "CL/F": "1.7 L/h"}
